{"data": "Measurements of several laboratories", "note": "Numbered parts are unrelated; each lists some results of a single study."}
{"data": "Study 1", "target": "Sal-like protein 4, full length isoform B (SALL4, Homo sapiens, UniProt Q9UJQ4-2, residues 1-616)", "technique": "universal PBM", "molecule type": "double-stranded DNA, one strand shown", "sample": "in vitro", "concentration": "not given", "notes": "8-mer, flanks averaged, mean of replicates", "reading": "higher = stronger binding", "Construct (chain)": "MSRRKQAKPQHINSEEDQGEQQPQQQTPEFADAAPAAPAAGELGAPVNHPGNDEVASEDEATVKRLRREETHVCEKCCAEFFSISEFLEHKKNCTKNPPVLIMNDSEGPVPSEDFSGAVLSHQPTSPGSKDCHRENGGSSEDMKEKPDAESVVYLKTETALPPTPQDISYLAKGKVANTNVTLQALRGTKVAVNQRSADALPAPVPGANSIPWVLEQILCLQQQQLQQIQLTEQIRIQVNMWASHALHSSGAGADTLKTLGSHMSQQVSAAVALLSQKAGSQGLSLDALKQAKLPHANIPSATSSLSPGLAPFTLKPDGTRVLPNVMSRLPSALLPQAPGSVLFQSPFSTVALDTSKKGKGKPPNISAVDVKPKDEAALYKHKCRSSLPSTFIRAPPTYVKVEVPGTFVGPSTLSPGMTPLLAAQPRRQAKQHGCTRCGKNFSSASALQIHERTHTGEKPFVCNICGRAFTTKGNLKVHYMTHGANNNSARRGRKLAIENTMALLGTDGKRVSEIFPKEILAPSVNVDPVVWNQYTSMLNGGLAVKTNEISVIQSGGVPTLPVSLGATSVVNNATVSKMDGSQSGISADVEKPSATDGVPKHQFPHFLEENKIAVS"}
{"Strand": "AAGCATCA", "E-score": 0.00978}
{"Strand": "CACTCACA", "E-score": 0.00694}
{"Strand": "AGAATAAT", "E-score": 0.304}
{"Strand": "AAGAGCTG", "E-score": -0.193}
{"Strand": "ATGCGAAC", "E-score": -0.00485}
{"Strand": "GCTATTAC", "E-score": 0.153}
{"Strand": "CTTTTGGC", "E-score": 0.00512}
{"Strand": "CAGTACAG", "E-score": 0.0756}
{"Strand": "GGGCACCA", "E-score": -0.289}
{"Strand": "CATAATAG", "E-score": 0.337}
{"Strand": "AATGGGAG", "E-score": 0.0153}
{"Strand": "CTCTCACC", "E-score": -0.203}
{"Strand": "CAAGGCAC", "E-score": -0.233}
{"Strand": "CCACAATA", "E-score": 0.191}
{"Strand": "TCATAGCA", "E-score": 0.145}
{"Strand": "TCGGCAAA", "E-score": -0.23}
{"Strand": "TCATTCGA", "E-score": 0.138}
{"Strand": "CGACCACG", "E-score": -0.285}
{"Strand": "AGACAGCT", "E-score": -0.195}
{"Strand": "GGGGTAGA", "E-score": -0.0394}
{"Strand": "ACCATATC", "E-score": 0.157}
{"Strand": "CGCTCATC", "E-score": -0.0938}
{"Strand": "ACTGAGAG", "E-score": -0.141}
{"Strand": "ACTAGGGG", "E-score": -0.172}
{"Strand": "ATAGCACC", "E-score": 0.168}
{"data": "Study 2", "target": "Ras GTPase-activating protein-binding protein 1, full length (G3BP1, Homo sapiens, UniProt Q13283)", "technique": "RNA Bind-n-Seq", "molecule type": "RNA", "sample": "in vitro", "concentration": "200 nM", "notes": "whole 134-nt RNA, ends assumed", "with": "150 mM LiCl", "reference": "input library", "reading": "higher = stronger binding", "each molecule": "7-deaza-guanosine replaces G", "shared flanks, not repeated": "GGGAGUUCUACAGUCCGACGAUC … UGGAAUUCUCGGGUGUCAAGG", "chain of UniProt Q13283 (whole entry, looked up)": "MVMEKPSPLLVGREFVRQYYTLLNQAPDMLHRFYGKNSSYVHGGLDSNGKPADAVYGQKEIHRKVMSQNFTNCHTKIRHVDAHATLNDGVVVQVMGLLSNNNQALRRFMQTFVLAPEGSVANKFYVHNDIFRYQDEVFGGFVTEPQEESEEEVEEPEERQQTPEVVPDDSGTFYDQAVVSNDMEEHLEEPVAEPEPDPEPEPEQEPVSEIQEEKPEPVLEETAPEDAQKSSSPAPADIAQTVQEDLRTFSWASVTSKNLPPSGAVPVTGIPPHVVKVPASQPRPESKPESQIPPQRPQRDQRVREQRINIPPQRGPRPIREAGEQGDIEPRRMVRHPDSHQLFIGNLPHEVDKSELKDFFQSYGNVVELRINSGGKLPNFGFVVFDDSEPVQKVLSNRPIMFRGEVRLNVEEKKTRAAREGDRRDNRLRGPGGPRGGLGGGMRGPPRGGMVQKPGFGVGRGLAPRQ"}
{"Strand": "CAAGUCCUGUGCUACACAUCGUAUGUACCGAAUCGGGGCCCGGGCCCGGGCCCGGAAAGUAUUAUGUUACGCCGUUCGGAUCUGCACUUC", "log2 enrichment": -1.76}
{"Strand": "GUCCUGUGCUACACAUCGUAUGUACCGAAUCGGGUUUGGGUUUUUUUGGGAAAAAGGGAAAGUAUUAUGUUACGCCGUUCGGAUCUGCAC", "log2 enrichment": -0.416}
{"Strand": "CCUGUGCUACACAUCGUAUGUACCGAAUCGGUUUUUUGGGUUUUUUGGGGUUUUUUGGGGAAAGUAUUAUGUUACGCCGUUCGGAUCUGC", "log2 enrichment": 0.0901}
{"Strand": "UCCUCAAGUCCUGUGCUACACAUCGUAUGUACCGAAUCGGUGGUGGUGGGGAAAGUAUUAUGUUACGCCGUUCGGAUCUGCACUUCCAGC", "log2 enrichment": 0.485}
{"Strand": "CCUCAAGUCCUGUGCUACACAUCGUAUGUACCGAAUCGGAAAGGAAAGGUGGAAAGUAUUAUGUUACGCCGUUCGGAUCUGCACUUCCAG", "log2 enrichment": -0.413}
{"Strand": "CCUCAAGUCCUGUGCUACACAUCGUAUGUACCGAAUCGGGUGGGGUGGGUGGGAAAGUAUUAUGUUACGCCGUUCGGAUCUGCACUUCCA", "log2 enrichment": -0.0769}
{"Strand": "CCUGUGCUACACAUCGUAUGUACCGAAUCGGGGAAAAAGGGGUUUGGGGAAAAAAAGGGGAAAGUAUUAUGUUACGCCGUUCGGAUCUGC", "log2 enrichment": -0.566}
{"Strand": "AAGUCCUGUGCUACACAUCGUAUGUACCGAAUCGGUUUUUUUGGUGGUUUUUUUGGAAAGUAUUAUGUUACGCCGUUCGGAUCUGCACUU", "log2 enrichment": -0.682}
{"Strand": "CACAGACAACACGCACCCACACAGACACAGAGGGAAGGGGUUGGGAUGGGGACAGGGUGCACAGCAGGGCGGAAAAGGACCCCAGCCCCU", "log2 enrichment": 1.11}
{"Strand": "GCAGGAAGUAAAAACAAAUGGGAAUGCUUCGGAUAGUGGCAGGGGUGGGGGUUGCUAAGGAAAGGGUGGGAUGGGAGUGGGUAAAGAGUU", "log2 enrichment": 0.17}
{"Strand": "UGUGCUACACAUCGUAUGUACCGAAUCGGGGUUUUUUUGGGGAAAAAGGGGUUUUUUUGGGGAAAGUAUUAUGUUACGCCGUUCGGAUCU", "log2 enrichment": -1.02}
{"data": "Study 3", "target": "Histone acetyltransferase KAT6A, winged helix 1, GST fusion (KAT6A, Homo sapiens, UniProt Q92794, residues 1-85)", "technique": "protein binding microarray", "molecule type": "double-stranded DNA, one strand shown", "sample": "in vitro", "concentration": "not given", "notes": "8-mer, flanks averaged, mean of 2 arrays, mostly near background", "reference": "not given", "reading": "higher = stronger binding", "Construct (chain)": "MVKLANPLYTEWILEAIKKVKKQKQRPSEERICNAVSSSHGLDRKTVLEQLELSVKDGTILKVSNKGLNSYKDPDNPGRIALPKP"}
{"Strand": "TAAATCAA", "E-score": -0.209}
{"Strand": "ATCGATTG", "E-score": -0.0982}
{"Strand": "CCCGGCCG", "E-score": 0.446}
{"Strand": "GTTCAGTA", "E-score": 0.0479}
{"Strand": "CAGATTTC", "E-score": -0.13}
{"Strand": "GCCGCAGA", "E-score": 0.262}
{"Strand": "CGTGCGAA", "E-score": 0.214}
{"Strand": "CTGTGCGA", "E-score": 0.00735}
{"Strand": "ATTAGGGG", "E-score": -0.179}
{"Strand": "ATTAGACC", "E-score": -0.0268}
{"Strand": "CCACAAGG", "E-score": -0.14}
{"Strand": "AACTAGGT", "E-score": -0.116}
{"Strand": "CGTCGAAG", "E-score": 0.0426}
{"Strand": "CACTCTGG", "E-score": -0.188}
{"Strand": "AATGCAAC", "E-score": -0.263}
{"Strand": "TGTCAAAA", "E-score": -0.0987}
{"Strand": "ACAAATCT", "E-score": -0.185}
{"Strand": "CTAGAGAA", "E-score": -0.0371}
{"Strand": "CTACCCGC", "E-score": 0.353}
{"data": "Study 4", "target": "Phosphate system positive regulatory protein PHO4, full length, GST-tagged (PHO4, Saccharomyces cerevisiae, UniProt P07270, residues 1-312)", "technique": "competition protein-binding microarray", "molecule type": "double-stranded DNA, one strand shown", "sample": "in vitro", "concentration": "2 µM", "notes": "whole 60-bp probe, lowest competitor level", "with": "Cbf1 competitor, 0.05 µM", "reading": "higher = stronger binding", "shared flanks, not repeated": "… GTCTTGATTCGCTTGACGCTGCTG", "Construct (chain)": "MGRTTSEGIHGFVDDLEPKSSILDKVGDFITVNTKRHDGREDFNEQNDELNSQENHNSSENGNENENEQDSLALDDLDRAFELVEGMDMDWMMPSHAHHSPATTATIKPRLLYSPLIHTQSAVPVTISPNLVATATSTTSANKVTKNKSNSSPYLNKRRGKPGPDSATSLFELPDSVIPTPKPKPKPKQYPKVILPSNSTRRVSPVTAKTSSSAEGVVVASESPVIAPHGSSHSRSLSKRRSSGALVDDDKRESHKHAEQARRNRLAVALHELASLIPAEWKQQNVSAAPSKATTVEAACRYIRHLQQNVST"}
{"Strand": "ACCATGGTGCGAAGTTGCATGACAACCCGGACGAAT", "fluorescence intensity [a.u.]": 5410}
{"Strand": "AAATTACTAAGTTGCCTTGTGGGTGACGCCGTATGA", "fluorescence intensity [a.u.]": 5530}
{"Strand": "CTAACGAAGGTTTGACCTGTGGGTGACAAGCCAAGT", "fluorescence intensity [a.u.]": 4340}
{"Strand": "CATCGGCCCAACTTGATCATGCAATTAGCAAGCAAC", "fluorescence intensity [a.u.]": 4260}
{"Strand": "TCCACCTCAAACGGCCACGCTCTGCTTTTTTTCTAT", "fluorescence intensity [a.u.]": 8460}
{"Strand": "TGCGCAACAACTTGGCTCGTGGGTGTATGTCTAGAA", "fluorescence intensity [a.u.]": 10100}
{"Strand": "TGCGCAACAACTTACCACGTGTTTTTATGTCTAGAA", "fluorescence intensity [a.u.]": 19100}
{"Strand": "CTCGCATAACGCAGGCACAGGTCTCGAACTGCGGTG", "fluorescence intensity [a.u.]": 4870}
{"Strand": "GAGCCTGTCGCCTCTTACATGACAAAAATGTTGGAA", "fluorescence intensity [a.u.]": 3660}
{"Strand": "TGTTTACAGCCGAGTCACGGGATATTGGTCTGTGAA", "fluorescence intensity [a.u.]": 4780}
{"Strand": "GGGACCTCCAGCAAGCACATGGCATCCTTTTATAAG", "fluorescence intensity [a.u.]": 10800}
{"Strand": "GGGTTATCGTAGTGAGTCGTGGCCGCAACGATAGCA", "fluorescence intensity [a.u.]": 5630}
{"Strand": "CACACCCAATTTTTGCACGTGCTTTAATAGTAGTTT", "fluorescence intensity [a.u.]": 21700}
{"Strand": "ATCCAAAAGTTGAACGACATGACAAGGTAGTTCCGA", "fluorescence intensity [a.u.]": 4060}
{"Strand": "AGTGCTCCGTTAAAGCCTGTGACAGTAGCAACGACA", "fluorescence intensity [a.u.]": 3460}
{"Strand": "ATTAAAGAAAAATTAAACGTGATGGGTCTATCGAGC", "fluorescence intensity [a.u.]": 10900}
{"Strand": "CATACCCAACCTTGACGGGTGGGTGAAGATATTTGT", "fluorescence intensity [a.u.]": 4720}
{"Strand": "CTTCTGTAAATTTTTCACGTGTAATGACGCGCCCCG", "fluorescence intensity [a.u.]": 12400}
{"Strand": "CATACCCAACCTTTTCACGTGGGATAAGATATTTGT", "fluorescence intensity [a.u.]": 14300}
{"Strand": "CATGTCTTGCACTGTCACACGATTGTAATTCAATTG", "fluorescence intensity [a.u.]": 7720}
{"Strand": "TCACAAGATGATTGTCATGAAATTCTCTGTCTCTCC", "fluorescence intensity [a.u.]": 2970}
{"Strand": "CGTCCTAGTGATTGTCACAAAACTTCCATGAGGAAG", "fluorescence intensity [a.u.]": 4090}
{"Strand": "GCCTATAACAGCACCAACGTGCGGAATACTGATTGC", "fluorescence intensity [a.u.]": 12600}
{"Strand": "CATACCCAACCTTGGCCCGTGGGTGAAGATATTTGT", "fluorescence intensity [a.u.]": 10500}
{"Strand": "TAAACACCATCACTACACGTTTTAAACAAAACAAAC", "fluorescence intensity [a.u.]": 12100}
